# Measurements gathered from unrelated publications.
# Compare with care: the assays were run in different laboratories. “And” joins repeats or separate records; there may be more than shown. ± marks the error that the study gave.
# UniProt P27694, sequence (whole entry, looked up): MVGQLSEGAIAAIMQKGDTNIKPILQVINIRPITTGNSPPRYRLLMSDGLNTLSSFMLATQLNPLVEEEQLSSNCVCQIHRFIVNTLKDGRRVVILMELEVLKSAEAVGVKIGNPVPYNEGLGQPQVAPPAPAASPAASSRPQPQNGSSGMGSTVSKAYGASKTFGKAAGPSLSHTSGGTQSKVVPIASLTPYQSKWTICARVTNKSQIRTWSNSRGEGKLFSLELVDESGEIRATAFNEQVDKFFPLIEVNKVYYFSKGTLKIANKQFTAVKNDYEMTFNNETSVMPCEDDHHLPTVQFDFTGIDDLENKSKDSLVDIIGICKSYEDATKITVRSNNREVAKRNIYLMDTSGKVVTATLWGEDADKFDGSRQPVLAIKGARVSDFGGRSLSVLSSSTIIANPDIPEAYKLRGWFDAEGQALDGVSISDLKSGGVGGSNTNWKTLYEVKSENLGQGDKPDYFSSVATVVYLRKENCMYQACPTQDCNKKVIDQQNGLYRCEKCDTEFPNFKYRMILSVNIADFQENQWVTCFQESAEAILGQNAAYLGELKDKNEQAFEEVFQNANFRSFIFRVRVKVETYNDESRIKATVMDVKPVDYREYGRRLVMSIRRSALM
# UniProt P28845, sequence (whole entry, looked up): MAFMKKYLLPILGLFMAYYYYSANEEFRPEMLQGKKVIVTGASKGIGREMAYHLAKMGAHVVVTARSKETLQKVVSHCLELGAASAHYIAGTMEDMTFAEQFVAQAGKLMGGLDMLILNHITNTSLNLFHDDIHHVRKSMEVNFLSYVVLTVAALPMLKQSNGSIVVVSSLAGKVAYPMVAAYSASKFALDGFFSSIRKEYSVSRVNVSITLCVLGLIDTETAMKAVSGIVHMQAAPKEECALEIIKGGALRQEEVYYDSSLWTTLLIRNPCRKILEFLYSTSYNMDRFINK
# UniProt Q9NNX6, sequence (whole entry, looked up): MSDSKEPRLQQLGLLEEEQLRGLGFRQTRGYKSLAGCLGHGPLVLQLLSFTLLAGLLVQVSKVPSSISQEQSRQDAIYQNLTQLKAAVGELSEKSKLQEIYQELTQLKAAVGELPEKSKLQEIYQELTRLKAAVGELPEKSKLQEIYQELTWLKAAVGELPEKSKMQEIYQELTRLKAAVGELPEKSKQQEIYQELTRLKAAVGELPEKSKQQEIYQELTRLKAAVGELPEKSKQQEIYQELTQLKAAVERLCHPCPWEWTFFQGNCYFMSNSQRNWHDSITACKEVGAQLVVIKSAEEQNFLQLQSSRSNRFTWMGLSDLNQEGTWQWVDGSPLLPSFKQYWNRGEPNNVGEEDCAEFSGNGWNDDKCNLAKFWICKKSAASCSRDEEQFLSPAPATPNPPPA
# UniProt Q9Q6P4, sequence (whole entry, looked up): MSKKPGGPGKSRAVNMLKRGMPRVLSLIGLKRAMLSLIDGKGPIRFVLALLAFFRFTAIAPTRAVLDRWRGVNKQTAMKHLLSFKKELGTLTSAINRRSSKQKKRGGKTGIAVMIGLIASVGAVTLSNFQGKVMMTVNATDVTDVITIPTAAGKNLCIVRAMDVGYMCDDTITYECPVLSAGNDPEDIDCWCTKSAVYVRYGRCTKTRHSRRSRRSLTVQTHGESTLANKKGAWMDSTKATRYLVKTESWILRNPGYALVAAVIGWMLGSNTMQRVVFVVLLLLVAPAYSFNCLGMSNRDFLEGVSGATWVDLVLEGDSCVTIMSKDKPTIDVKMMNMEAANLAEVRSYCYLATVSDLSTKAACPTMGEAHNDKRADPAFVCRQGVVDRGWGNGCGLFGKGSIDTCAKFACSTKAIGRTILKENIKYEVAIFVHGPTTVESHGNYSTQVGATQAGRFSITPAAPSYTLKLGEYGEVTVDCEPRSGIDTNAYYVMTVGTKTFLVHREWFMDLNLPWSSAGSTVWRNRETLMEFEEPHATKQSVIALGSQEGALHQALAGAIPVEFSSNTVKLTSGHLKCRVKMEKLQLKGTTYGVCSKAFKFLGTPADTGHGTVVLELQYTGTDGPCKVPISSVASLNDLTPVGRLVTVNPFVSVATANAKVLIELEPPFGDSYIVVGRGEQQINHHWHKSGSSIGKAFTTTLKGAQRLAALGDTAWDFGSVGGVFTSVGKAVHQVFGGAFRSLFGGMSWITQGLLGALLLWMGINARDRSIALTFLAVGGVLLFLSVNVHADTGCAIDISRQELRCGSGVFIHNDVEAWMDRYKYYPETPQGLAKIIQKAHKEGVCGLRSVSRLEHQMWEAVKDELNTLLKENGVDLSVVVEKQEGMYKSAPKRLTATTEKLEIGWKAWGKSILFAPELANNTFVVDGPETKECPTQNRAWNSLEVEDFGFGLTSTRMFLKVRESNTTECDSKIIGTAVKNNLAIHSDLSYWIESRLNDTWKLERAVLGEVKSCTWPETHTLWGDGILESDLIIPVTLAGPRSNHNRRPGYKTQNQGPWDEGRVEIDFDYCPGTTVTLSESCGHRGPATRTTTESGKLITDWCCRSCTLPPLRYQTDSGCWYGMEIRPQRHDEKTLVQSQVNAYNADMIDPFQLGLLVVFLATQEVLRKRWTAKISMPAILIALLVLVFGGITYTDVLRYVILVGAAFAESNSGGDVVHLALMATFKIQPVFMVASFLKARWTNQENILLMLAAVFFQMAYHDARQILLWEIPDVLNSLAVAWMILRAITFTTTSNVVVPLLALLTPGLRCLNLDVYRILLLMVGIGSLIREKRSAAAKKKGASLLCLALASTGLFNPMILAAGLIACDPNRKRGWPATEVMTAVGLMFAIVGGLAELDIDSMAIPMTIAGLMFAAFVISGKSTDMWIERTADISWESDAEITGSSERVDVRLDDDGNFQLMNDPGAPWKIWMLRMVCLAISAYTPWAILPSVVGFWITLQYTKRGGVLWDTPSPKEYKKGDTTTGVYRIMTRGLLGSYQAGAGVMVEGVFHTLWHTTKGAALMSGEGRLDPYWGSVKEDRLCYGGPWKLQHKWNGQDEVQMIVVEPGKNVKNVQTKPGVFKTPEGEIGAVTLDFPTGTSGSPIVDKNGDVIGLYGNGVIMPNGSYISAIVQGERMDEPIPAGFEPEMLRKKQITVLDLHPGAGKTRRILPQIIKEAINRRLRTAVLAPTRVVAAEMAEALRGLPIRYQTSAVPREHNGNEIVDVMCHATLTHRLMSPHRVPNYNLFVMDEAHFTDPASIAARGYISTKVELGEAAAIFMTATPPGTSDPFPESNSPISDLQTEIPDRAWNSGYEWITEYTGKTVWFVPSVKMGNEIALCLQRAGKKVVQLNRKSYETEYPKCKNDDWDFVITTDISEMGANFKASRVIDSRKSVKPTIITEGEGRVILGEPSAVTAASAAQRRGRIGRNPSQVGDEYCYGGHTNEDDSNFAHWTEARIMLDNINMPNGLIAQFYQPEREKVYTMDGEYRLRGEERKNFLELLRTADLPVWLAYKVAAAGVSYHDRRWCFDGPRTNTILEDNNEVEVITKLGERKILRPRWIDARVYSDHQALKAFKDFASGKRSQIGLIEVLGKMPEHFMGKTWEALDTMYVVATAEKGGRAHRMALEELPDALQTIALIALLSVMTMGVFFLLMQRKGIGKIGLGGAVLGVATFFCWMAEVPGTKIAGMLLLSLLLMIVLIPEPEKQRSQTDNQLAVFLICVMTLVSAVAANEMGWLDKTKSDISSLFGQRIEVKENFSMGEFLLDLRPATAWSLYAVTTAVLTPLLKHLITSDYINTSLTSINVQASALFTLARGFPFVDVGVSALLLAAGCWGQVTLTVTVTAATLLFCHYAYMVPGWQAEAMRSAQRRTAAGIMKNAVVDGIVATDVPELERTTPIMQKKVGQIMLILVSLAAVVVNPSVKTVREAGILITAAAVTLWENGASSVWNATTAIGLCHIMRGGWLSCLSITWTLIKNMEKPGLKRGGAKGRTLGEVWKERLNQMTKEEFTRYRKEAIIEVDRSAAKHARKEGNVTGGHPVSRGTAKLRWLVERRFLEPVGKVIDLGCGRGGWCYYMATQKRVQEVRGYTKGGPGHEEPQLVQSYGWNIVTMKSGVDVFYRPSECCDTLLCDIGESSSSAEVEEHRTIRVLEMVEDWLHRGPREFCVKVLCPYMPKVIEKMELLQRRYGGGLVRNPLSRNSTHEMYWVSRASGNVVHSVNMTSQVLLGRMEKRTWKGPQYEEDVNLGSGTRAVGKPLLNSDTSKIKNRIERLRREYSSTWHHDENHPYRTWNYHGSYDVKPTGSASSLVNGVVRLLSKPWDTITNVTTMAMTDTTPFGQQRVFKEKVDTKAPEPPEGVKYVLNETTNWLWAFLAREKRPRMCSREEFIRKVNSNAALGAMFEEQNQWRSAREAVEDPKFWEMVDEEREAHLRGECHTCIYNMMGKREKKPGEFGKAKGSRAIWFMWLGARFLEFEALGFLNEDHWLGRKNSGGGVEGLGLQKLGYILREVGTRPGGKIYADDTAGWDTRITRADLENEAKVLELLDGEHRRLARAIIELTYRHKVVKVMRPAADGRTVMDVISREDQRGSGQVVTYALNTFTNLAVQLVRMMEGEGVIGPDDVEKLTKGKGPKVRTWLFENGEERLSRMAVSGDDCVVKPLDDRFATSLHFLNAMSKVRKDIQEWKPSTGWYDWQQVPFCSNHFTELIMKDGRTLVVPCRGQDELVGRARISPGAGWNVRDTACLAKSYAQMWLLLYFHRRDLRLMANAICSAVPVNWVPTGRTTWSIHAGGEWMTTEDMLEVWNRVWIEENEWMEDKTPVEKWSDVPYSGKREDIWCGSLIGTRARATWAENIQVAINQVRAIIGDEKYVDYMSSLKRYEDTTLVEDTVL
SMILES,target,test,system,conditions,IC50
Cc1cc2c(NC(=O)N[C@@H]3CC(C)(C)Oc4c(OC(F)(F)F)cccc43)cccc2cn1,"Transient receptor potential cation channel subfamily V member 1 (Trpv1, Rattus norvegicus, UniProt O35433)","calcium signal, antagonist, fluorescence",,,0.429 µM
Cc1cc([N+](=O)[O-])cn(CC(=O)c2cc3cc(Br)ccc3[nH]2)c1=O,"Replication protein A 70 kDa DNA-binding subunit (RPA1, Homo sapiens, UniProt P27694)","inhibitor, FRET",,,1.12 ± 0.13 µM
COc1cc(/C=C/c2cc(/C=C/c3ccc(O)c(OC)c3)nc(N)n2)ccc1O,"Sterol carrier protein 2 (Helicoverpa armigera, UniProt K7NSY9)","displacement of 1,8-ANS, fluorescence",,"pH 7.0, 25 °C, added: 1,8-ANS 15 µM",19.9 µM
NC(=O)[C@@H]1Cc2c([nH]c3ccccc23)[C@@H](c2ccc(Cl)cc2Cl)N1,"MEP cytidylyltransferase IspD (Plasmodium falciparum, UniProt Q8I273)","enzyme activity, inhibitor, fluorimetric pyrophosphate",,,~1 µM
O=c1c(O)c(-c2ccccc2)oc2c1ccc1ccccc12,"Kynurenine 3-monooxygenase (KMO, Homo sapiens, UniProt O15229)","enzyme activity, inhibitor, absorbance",,,15.8 µM
Oc1c(C(Nc2nccs2)c2ccccc2OCc2ccccc2)ccc2cccnc12 (centres unmarked),"Genome polyprotein, NS2B-NS3 protease (GP1, West Nile virus, UniProt Q9Q6P4)","enzyme activity, inhibitor",,"0.1% CHAPS, added: tetrapeptide substrate",6.95 ± 0.12 µM
COC(=O)[C@H]1C[C@H](OCCCl)[C@@H](O[C@H]2O[C@H](CO)[C@@H](O)[C@H](O)[C@@H]2n2cc(-c3cccnc3)nn2)C[C@@H]1C(=O)OC,"CD209 antigen (CD209, Homo sapiens, UniProt Q9NNX6)","cell-free assay, SPR",,,609 µM
O=C(CS(=O)(=O)Cc1ccco1)C12CC3CC(CC(C3)C1)C2,"11-beta-hydroxysteroid dehydrogenase 1 (HSD11B1, Homo sapiens, UniProt P28845)","enzyme activity in cells, inhibitor",,,0.036 µM and < 0.05 µM
O=c1c(OCc2ccccc2)c(-c2ccccc2)oc2ccccc12,β-glucosidase,"enzyme activity, inhibitor",,,1.02 ± 0.02 µM
NCc1ccc(NC(=O)c2ccc3ccccc3c2O)cc1,"Transmembrane protease serine 11D (TMPRSS11D, Homo sapiens, UniProt O60235)","enzyme activity, inhibitor",,"15 min preincubation, added: Boc-VPR-AMC 100 µM",30.3 ± 2.6 µM
CC[C@H](C)[C@H](NC(=O)[C@H](CCSC)NC(=O)[C@H](Cc1ccc(O)cc1)NC(=O)[C@H](CO)NC(=O)[C@H](CC(=O)O)NC(=O)[C@@H](NC(=O)[C@H](CC(=O)O)NC(=O)[C@H](CC(=O)O)NC(=O)[C@H](CC(N)=O)NC(=O)[C@H](C)NC(=O)[C@H](Cc1ccccc1)NC(=O)[C@H](CC(=O)O)NC(C)=O)[C@@H](C)CC)C(=O)N[C@@H](C)C(=O)N[C@@H](CCSC)C(=O)N[C@@H](CCC(=O)O)C(N)=O,"Replication protein A 70 kDa DNA-binding subunit, N-terminal domain (RPA1, Homo sapiens, UniProt P27694)","binding, fluorescence polarization",,"1 h, added: FITC-ATRIP",102 ± 13.6 µM
O=C(NO)c1cccc(C(=O)NCCc2ccccc2)c1,HDAC (Lucilia cuprina egg nuclear extract),"enzyme activity, inhibitor, fluorometric",,,> 100 µM
CCCN(CC(=O)N(CCC)CC(=O)N(CCC)CC(=O)N(CCC)CC(=O)N(CCC)CC(=O)N(CCC)CC(=O)N(CCC)CC(=O)N(CCC)CC(=O)N(CCC)CC(=O)N(CCC)CC(=O)N(CCC)CC(=O)N(CCC)CC(=O)N(CC(N)=O)Cc1cn(CCCNC(=O)CCCOc2cccc(-c3nc4ccc(-c5nc6ccc(N7CCN(C)CC7)cc6[nH]5)cc4[nH]3)c2)nn1)C(=O)CNCc1cn(CCCNC(=O)CCCOc2cccc(-c3nc4ccc(-c5nc6ccc(N7CCN(C)CC7)cc6[nH]5)cc4[nH]3)c2)nn1,MBNL1–r(CUG)109 complex,MBNL1 displacement,,added: bulk yeast tRNA competitor,> 30 µM
C=CC(=O)N1CCc2ccc(-n3c(=O)ccc4cnc5ccc(-c6cnn(C)c6)cc5c43)cc21,"Tyrosine-protein kinase Fer (FER, Homo sapiens, UniProt P16591)","enzyme activity, inhibitor",,,> 10 µM
NC(c1ccccc1)(c1ccccc1)c1ccccc1Cl,"Gap junction alpha-8 protein (Gja8, Mus musculus, UniProt P28236)","gap junction current, inhibitor, dual whole-cell voltage clamp",transfected mouse N2a cell pairs,,4 µM
O=C(O)C(CO)NCc1cc(Cl)c(OCc2cccc(-c3ccccc3)c2Br)cc1OCc1cccnc1 (centres unmarked),"LAG3, with MHC class II (Homo sapiens, UniProt P18627)","protein-protein interaction, inhibitor, HTRF",,,> 10 µM
COc1cc2nccc(Oc3ccc(NC(=S)NC(C)C)c(Cl)c3)c2cc1C(N)=O,"Fibroblast growth factor receptor 1 (FGFR1, Homo sapiens, UniProt P11362)",,,,0.646 µM

# Excerpt of the above:
SMILES,target,test,system,conditions,IC50
O=c1c(O)c(-c2ccccc2)oc2c1ccc1ccccc12,"Kynurenine 3-monooxygenase (KMO, Homo sapiens, UniProt O15229)","enzyme activity, inhibitor, absorbance",,,15.8 µM
O=c1c(OCc2ccccc2)c(-c2ccccc2)oc2ccccc12,β-glucosidase,"enzyme activity, inhibitor",,,1.02 ± 0.02 µM
